Measurements of several laboratories.
Parts stem from different laboratories: compare values within a part only.
UniProt O96017, sequence (whole entry, looked up): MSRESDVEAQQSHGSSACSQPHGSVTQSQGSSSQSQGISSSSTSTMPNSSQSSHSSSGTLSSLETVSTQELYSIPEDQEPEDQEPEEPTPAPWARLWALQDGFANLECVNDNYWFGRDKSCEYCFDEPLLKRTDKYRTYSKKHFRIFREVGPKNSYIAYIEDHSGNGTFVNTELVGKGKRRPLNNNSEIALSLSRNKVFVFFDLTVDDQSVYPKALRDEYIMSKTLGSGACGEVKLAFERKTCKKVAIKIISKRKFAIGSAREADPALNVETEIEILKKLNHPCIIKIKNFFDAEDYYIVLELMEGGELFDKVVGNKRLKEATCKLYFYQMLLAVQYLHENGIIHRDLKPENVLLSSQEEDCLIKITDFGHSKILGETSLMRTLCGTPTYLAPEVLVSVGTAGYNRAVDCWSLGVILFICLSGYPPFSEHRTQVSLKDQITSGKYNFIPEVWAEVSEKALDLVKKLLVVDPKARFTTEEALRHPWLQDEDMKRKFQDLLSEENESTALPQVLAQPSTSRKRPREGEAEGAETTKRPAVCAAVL
UniProt Q99759, sequence (whole entry, looked up): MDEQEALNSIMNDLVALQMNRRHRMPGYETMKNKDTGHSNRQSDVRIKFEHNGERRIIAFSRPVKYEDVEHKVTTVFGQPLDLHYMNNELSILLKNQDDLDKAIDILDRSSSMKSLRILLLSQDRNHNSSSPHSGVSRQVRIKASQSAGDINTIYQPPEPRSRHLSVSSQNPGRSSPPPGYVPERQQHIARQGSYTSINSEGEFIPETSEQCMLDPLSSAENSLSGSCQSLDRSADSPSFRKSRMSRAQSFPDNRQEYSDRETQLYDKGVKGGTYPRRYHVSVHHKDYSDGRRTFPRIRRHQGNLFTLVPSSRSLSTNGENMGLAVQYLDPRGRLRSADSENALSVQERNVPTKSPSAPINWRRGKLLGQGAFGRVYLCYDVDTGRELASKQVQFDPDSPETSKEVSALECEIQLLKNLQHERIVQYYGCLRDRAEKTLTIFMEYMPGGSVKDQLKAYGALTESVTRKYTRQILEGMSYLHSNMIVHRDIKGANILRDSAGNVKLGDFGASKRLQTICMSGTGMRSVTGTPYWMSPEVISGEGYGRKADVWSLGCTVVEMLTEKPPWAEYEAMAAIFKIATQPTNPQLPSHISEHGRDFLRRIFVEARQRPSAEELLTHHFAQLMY
UniProt P53355, sequence (whole entry, looked up): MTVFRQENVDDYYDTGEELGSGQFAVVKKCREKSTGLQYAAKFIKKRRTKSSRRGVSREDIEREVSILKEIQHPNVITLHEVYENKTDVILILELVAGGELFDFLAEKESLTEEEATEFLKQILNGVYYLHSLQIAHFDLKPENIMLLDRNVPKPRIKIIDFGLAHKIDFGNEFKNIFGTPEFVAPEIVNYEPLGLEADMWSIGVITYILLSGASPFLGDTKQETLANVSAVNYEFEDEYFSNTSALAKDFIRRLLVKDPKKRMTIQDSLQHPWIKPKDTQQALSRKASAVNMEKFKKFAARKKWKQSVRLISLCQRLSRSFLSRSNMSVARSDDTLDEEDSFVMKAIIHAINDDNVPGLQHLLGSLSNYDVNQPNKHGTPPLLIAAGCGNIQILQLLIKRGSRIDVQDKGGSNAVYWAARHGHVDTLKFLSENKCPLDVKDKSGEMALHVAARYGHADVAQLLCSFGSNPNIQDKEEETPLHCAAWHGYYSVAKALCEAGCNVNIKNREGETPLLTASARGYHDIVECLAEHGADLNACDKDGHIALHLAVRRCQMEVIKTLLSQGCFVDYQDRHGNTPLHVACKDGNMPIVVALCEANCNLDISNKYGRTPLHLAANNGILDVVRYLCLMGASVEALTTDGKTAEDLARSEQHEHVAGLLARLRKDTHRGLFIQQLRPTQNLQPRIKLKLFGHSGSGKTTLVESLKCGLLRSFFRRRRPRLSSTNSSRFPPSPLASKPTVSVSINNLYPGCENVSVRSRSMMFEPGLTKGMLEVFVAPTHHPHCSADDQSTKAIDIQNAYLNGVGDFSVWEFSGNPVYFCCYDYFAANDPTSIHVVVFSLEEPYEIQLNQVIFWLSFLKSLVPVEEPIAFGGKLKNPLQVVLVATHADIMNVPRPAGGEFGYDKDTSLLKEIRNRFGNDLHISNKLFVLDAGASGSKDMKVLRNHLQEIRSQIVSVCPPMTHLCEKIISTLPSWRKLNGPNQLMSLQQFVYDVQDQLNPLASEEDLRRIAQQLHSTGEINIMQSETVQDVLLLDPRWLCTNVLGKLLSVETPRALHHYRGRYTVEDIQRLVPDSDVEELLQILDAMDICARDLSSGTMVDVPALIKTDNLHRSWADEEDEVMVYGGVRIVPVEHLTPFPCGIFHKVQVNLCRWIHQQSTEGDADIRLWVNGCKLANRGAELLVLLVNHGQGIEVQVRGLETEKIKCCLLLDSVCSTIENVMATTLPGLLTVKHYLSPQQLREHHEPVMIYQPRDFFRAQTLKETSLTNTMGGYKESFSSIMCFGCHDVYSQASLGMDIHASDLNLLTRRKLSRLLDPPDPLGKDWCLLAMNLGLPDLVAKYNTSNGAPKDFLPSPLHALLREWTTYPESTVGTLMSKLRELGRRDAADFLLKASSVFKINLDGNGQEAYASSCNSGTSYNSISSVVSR
UniProt Q13557, sequence (whole entry, looked up): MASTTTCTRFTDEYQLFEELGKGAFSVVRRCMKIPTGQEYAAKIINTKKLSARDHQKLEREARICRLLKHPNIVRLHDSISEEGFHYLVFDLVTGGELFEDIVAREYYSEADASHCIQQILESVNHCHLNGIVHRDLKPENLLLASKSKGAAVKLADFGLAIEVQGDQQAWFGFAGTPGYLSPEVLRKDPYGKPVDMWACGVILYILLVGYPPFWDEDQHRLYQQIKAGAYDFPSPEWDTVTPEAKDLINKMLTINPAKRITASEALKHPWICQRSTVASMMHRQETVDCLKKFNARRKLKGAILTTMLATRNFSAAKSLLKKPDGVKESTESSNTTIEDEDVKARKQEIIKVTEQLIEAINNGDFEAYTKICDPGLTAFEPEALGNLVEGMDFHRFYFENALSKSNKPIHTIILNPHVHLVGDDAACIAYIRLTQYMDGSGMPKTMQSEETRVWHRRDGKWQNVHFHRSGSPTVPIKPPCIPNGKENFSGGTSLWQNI
UniProt O60285, sequence (whole entry, looked up): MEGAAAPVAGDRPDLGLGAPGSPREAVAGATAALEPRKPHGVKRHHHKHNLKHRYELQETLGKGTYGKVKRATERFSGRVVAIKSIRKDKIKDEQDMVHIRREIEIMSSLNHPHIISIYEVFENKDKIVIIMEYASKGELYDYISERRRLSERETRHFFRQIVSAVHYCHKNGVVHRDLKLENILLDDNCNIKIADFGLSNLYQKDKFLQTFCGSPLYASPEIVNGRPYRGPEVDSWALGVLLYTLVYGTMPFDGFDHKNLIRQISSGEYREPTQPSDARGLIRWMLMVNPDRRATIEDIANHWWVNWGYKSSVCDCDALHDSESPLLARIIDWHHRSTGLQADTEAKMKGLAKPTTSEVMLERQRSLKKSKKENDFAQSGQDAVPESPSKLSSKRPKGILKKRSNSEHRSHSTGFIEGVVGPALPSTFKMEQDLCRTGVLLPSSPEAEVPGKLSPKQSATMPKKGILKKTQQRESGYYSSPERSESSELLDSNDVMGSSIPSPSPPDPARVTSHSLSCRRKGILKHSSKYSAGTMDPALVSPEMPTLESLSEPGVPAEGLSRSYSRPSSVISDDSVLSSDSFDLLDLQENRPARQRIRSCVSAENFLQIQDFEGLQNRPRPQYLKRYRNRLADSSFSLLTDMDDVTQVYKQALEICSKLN
UniProt Q9Y6M4, sequence (whole entry, looked up): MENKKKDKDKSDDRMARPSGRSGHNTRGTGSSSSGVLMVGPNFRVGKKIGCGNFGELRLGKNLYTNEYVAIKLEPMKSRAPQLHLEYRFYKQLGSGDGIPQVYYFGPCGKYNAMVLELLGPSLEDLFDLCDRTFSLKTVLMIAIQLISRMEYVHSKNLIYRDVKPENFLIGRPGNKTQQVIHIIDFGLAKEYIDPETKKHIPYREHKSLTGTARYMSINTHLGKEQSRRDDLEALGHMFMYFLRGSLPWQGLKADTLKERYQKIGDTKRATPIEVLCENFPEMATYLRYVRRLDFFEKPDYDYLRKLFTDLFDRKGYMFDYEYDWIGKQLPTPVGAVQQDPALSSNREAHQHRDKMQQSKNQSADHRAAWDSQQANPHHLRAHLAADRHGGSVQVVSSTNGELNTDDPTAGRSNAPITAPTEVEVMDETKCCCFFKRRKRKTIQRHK
UniProt O60331, sequence (whole entry, looked up): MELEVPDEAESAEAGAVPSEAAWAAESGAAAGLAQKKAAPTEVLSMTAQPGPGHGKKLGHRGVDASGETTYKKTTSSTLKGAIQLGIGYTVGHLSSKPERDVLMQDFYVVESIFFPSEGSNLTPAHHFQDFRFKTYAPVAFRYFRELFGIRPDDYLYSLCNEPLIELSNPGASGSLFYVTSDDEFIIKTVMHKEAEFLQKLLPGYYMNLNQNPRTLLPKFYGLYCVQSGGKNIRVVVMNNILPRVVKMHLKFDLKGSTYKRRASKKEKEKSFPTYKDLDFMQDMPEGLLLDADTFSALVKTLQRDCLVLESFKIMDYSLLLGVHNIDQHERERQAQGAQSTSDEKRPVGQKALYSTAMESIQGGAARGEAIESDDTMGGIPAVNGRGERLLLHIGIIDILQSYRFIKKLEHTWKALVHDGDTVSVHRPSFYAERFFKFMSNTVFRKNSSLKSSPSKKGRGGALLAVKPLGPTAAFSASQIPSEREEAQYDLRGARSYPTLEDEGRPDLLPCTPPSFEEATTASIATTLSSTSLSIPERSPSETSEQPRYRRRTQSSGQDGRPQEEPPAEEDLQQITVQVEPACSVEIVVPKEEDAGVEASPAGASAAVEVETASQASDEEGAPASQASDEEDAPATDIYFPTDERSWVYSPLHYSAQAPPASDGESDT

Series 1
Structure (SMILES): COc1ccc(-c2c(Nc3ccccn3)[nH]c3c(C4=CCCCC4)c(-c4ccccc4)nn3c2=O)cc1
Host: cancer patients
Sample: plasma
Route: oral
Time: cycle 0 day -3
Notes: single dose
Endpoint: Cmax, geometric mean
conditions = 100 mg; result = 1300 ng/mL
conditions = 400 mg; result = 1260 ng/mL
conditions = 50 mg; result = 521 ng/mL
conditions = 200 mg; result = 1530 ng/mL
conditions = 150 mg; result = 1460 ng/mL

Series 2
Structure (SMILES): N#CC(c1ccnc(NCCc2cccnc2)n1)c1nc2ccccc2s1 (stereo not shown)
Read-out: enzyme activity
Action: inhibitor
Tested at: 0.5 µM
Baseline: control
Endpoint: remaining activity
target = Calcium/calmodulin-dependent protein kinase kinase 2 (CAMKK2, Homo sapiens, UniProt Q96RR4); result = 80.4%
target = STE20/SPS1-related proline-alanine-rich protein kinase (STK39, Homo sapiens, UniProt Q9UEW8); result = 96.9%
target = Serine/threonine-protein kinase OSR1 (OXSR1, Homo sapiens, UniProt O95747); result = 99%
target = Protein kinase C beta type, isoform beta-I (PRKCB, Homo sapiens, UniProt P05771); result = 90.8%
target = Death-associated protein kinase 2 (DAPK2, Homo sapiens, UniProt Q9UIK4); result = 119%
target = Death-associated protein kinase 1 (DAPK1, Homo sapiens, UniProt P53355); result = 99.3%
target = Tyrosine-protein kinase Lyn, isoform B (LYN, Homo sapiens, UniProt P07948); result = 96.2%
target = G protein-coupled receptor kinase 3 (GRK3, Homo sapiens, UniProt P35626); result = 99.1%
target = Cyclin-dependent kinase 5, with p25 (CDK5, Homo sapiens, UniProt Q00535); result = 90%
target = Calcium/calmodulin-dependent protein kinase type II subunit delta (CAMK2D, Homo sapiens, UniProt Q13557); result = 89.3%
target = Serine/threonine-protein kinase STK11 (STK11, Homo sapiens, UniProt Q15831); result = 79.4%
target = Inhibitor of nuclear factor kappa-B kinase subunit epsilon (IKBKE, Homo sapiens, UniProt Q14164); result = 90.3%
target = Serine/threonine-protein kinase Nek2 (NEK2, Homo sapiens, UniProt P51955); result = 87.8%
target = Serine/threonine-protein kinase 10 (STK10, Homo sapiens, UniProt O94804); result = 86.3%
target = Protein kinase C alpha type (PRKCA, Homo sapiens, UniProt P17252); result = 94.3%
target = cAMP-dependent protein kinase catalytic subunit alpha (PRKACA, Homo sapiens, UniProt P17612); result = 103%
target = TGF-beta receptor type-2 (TGFBR2, Homo sapiens, UniProt P37173); result = 102%
target = cGMP-dependent protein kinase 1, isoform beta (PRKG1, Homo sapiens, UniProt Q13976); result = 99.4%
target = Serine/threonine-protein kinase Chk2 (CHEK2, Homo sapiens, UniProt O96017); result = 93.9%
target = Mitogen-activated protein kinase kinase kinase 3 (MAP3K3, Homo sapiens, UniProt Q99759); result = 94.7%
target = Cyclin-dependent kinase 4, with cyclin D1 (CDK4, Homo sapiens, UniProt P11802); result = 90.4%
target = Mitogen-activated protein kinase 9 (MAPK9, Homo sapiens, UniProt P45984); result = 67.5%

Series 3
SMILES: C[C@H](NC(=O)c1cnc2n1[C@](C)(Cc1ccc(C#N)cc1)C(=O)N2c1cc(Cl)c(F)c(Cl)c1)C(=O)NC1(c2ccccn2)CC1
Technique: competition with immobilised ligand
Tested at: 1 µM
Endpoint: remaining binding
target = Activin receptor type-1-like (ACVRL1, Homo sapiens, UniProt P37023); test = cell-free assay; result = 100%
target = NUAK family SNF1-like kinase 1 (NUAK1, Homo sapiens, UniProt O60285); test = cell-free assay; result = 99%
target = Cyclin-dependent kinase 18 (CDK18, Homo sapiens, UniProt Q07002); test = cell-free assay; result = 100%
target = Serine/threonine-protein kinase WNK1 (WNK1, Homo sapiens, UniProt Q9H4A3); test = cell-free assay; result = 100%
target = Serine/threonine-protein kinase RIO1 (RIOK1, Homo sapiens, UniProt Q9BRS2); test = cell-free assay; result = 100%
target = Serine/threonine-protein kinase tousled-like 2 (TLK2, Homo sapiens, UniProt Q86UE8); test = cell-free assay; result = 59%
target = Phosphatidylinositol 4-phosphate 5-kinase type-1 gamma (PIP5K1C, Homo sapiens, UniProt O60331); test = cell-free assay; result = 80%
target = Serine/threonine-protein kinase MAK (MAK, Homo sapiens, UniProt P20794); test = cell-free assay; result = 100%
target = Tyrosine-protein kinase ABL1, non-phosphorylated (ABL1, Homo sapiens, UniProt P00519, F317I); test = binding; result = 100%
target = Casein kinase I isoform gamma-3 (CSNK1G3, Homo sapiens, UniProt Q9Y6M4); test = cell-free assay; result = 100%
target = Receptor-type tyrosine-protein kinase FLT3 (FLT3, Homo sapiens, UniProt P36888, F691L/ITD); test = cell-free assay; result = 100%
target = TGF-beta receptor type-1 (TGFBR1, Homo sapiens, UniProt P36897); test = cell-free assay; result = 82%
target = Protein kinase C theta type (PRKCQ, Homo sapiens, UniProt Q04759); test = cell-free assay; result = 100%
target = Fibroblast growth factor receptor 3 (FGFR3, Homo sapiens, UniProt P22607); test = cell-free assay; result = 100%
target = Serine/threonine-protein kinase DCLK1 (DCLK1, Homo sapiens, UniProt O15075); test = cell-free assay; result = 89%
target = Phosphatidylinositol 3-kinase C2 domain-containing subunit gamma (PIK3C2G, Homo sapiens, UniProt O75747); test = cell-free assay; result = 100%
target = Serine/threonine-protein kinase 17A (STK17A, Homo sapiens, UniProt Q9UEE5); test = cell-free assay; result = 100%
target = Myosin light chain kinase (MYLK3, Homo sapiens, UniProt Q32MK0); test = cell-free assay; result = 100%
target = Serine/threonine-protein kinase PLK4 (PLK4, Homo sapiens, UniProt O00444); test = cell-free assay; result = 88%
target = Serine/threonine-protein kinase Chk2 (CHEK2, Homo sapiens, UniProt O96017); test = cell-free assay; result = 100%

Series 4
Cell line: HuT78
Tested at: 2 µM
Time: 48 h
Baseline: untreated
Endpoint: viability
Compound = CCn1c(N)c(C(=O)NC)c(=O)c2ccc(C#C[C@@](C)(O)COC)nc21; result = 96.2%
Compound = COc1ccc(-c2cc3c(C)nc(N)nc3n([C@H]3CC[C@H](OCCO)CC3)c2=O)cn1; result = 48.6%
Compound = CNC(=O)c1ccccc1Nc1nc(Nc2ccc(N3CCOCC3)cc2OC)ncc1Cl; result = 89.4%
Compound = CSc1cccc(Nc2ncc3cc(-c4c(Cl)cccc4Cl)c(=O)n(C)c3n2)c1; result = 103%
Compound = Nc1cccc(S(=O)(=O)N2CCCN(S(=O)(=O)c3ccc4c(c3)OCCO4)CC2)c1; result = 123%
Compound = O=S(=O)(NCCNC/C=C/c1ccc(Br)cc1)c1cccc2cnccc12; result = 120%
Compound = Nc1cccc(-c2cc3c(Oc4cccc(O)c4)ncnc3[nH]2)c1; result = 102%
Compound = Oc1c(F)cc(-c2cnccc2-c2ccc(N3CCOCC3)cc2)cc1F; result = 105%

Excerpt of the above (series 3):
target = Activin receptor type-1-like (ACVRL1, Homo sapiens, UniProt P37023); test = cell-free assay; result = 100%
target = Tyrosine-protein kinase ABL1, non-phosphorylated (ABL1, Homo sapiens, UniProt P00519, F317I); test = binding; result = 100%
target = Fibroblast growth factor receptor 3 (FGFR3, Homo sapiens, UniProt P22607); test = cell-free assay; result = 100%
target = Protein kinase C theta type (PRKCQ, Homo sapiens, UniProt Q04759); test = cell-free assay; result = 100%
target = Serine/threonine-protein kinase DCLK1 (DCLK1, Homo sapiens, UniProt O15075); test = cell-free assay; result = 89%
target = Casein kinase I isoform gamma-3 (CSNK1G3, Homo sapiens, UniProt Q9Y6M4); test = cell-free assay; result = 100%
target = TGF-beta receptor type-1 (TGFBR1, Homo sapiens, UniProt P36897); test = cell-free assay; result = 82%
target = Phosphatidylinositol 3-kinase C2 domain-containing subunit gamma (PIK3C2G, Homo sapiens, UniProt O75747); test = cell-free assay; result = 100%
target = Serine/threonine-protein kinase tousled-like 2 (TLK2, Homo sapiens, UniProt Q86UE8); test = cell-free assay; result = 59%
